Assay results of several laboratories.
Every numbered part comes from another study and shows a few of its results, in no order. Positions count from the first letter of the parent shown.

Sample 1 — technique: RNA Bind-n-Seq; molecule type: RNA; medium: in vitro; concentration: 365 nM; baseline: no-protein control; direction: higher = stronger binding; measurement: RBNS enrichment (R)
Target: RNA binding protein fox-1 homolog 2, RRM domain, GST-SBP tag (RBFOX2, Homo sapiens, UniProt O43251-10, residues 100-194)
Notes: natural RNA segment, single round, ends assumed
Constant ends, left off below: GGGAGUUCUACAGUCCGACGAUC … UGGAAUUCUCGGGUGCCAA
Construct (chain): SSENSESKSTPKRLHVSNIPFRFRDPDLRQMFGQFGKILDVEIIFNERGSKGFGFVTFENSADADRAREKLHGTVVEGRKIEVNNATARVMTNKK
AAGGUGGCGGUUUGUGCUUGCAGGGCAGCACUGCCCACCACCUGCCAGGGAGGAGCCUGAGCAGCUUCCAUAGCAGAUCCGUUGCCAGUUACCUGGCCUGUAAGCUUCUU: 0.293
CCCUGCCCAGUCCUAGCCUCCCCGUCACUGUCUCGGCUGCUCCCCCAUAGUUGGUUAUUUUUUAUUUGGGGCAGUGGGUGCAUACGGGGAGGGGAGGGUGUUCUUCCCAA: 0.622
GGCCGAGCCUCUGUGUUGCCUUCUCCUCUGUCCUCAGACUCAGGAGGCAGGUGGCAAUCUCCUCGCCAGCAUUCCAGGCCCUCAGUUCAAUGACAUCUCUCAGAGCAUUU: 0.554
ACACAGCAUACUGUUCAUUAAUAGUAUUUUAAAAAAAUUGUUUUUCAAAUGUCACCAAUAAAAGUUUUGGCAGGAAGCUUGUUGCGGCAUUGAUCUAACCUUUUUCCCCC: 0.948
UGGGACUACAGGCGCCUACCACCACGCCCAGCUAAGUUUUGUAUUUUUAGUAGAGUCAGGGUUUCACCAUGUUGGCCAGGCUGGUCUUGAAUUCCUGACCUCAAAUGAUC: 0.508
GCCAUUCGGACCCGACCGAUGUAAAUACAGCCGCCCGUCCGCCCGCCUUCCUCCCGGGCUCCCCGGCCUUGCCCGCCCCCUCCCGGGCGUCCCUGUCCAGGGCCCCGGCU: 0.234
UUAGACUUCCCACUGUUCUGAAAGGAGACAUUGCUCUAUGUCUGCCUUCGACCACAGCAAGCCAUCAUCCUCCAUUGCUCCCGGGGACUCAAGAGGAAUCUGUUUCUCUG: 0.329
ACUGUGUAAUUAUGUAUAAAGUUUUUUUAUUUAUUUGAAGUUAGACUAGAUAUACGUUUUUAAAUUUAACAUCUGGCUGGACAGUGUUCUAUUAACUCAUUGAAUGUGUU: 1.09

Sample 2 — technique: protein-binding microarray; molecule type: double-stranded DNA, one strand shown; medium: in vitro; concentration: not given; direction: higher = stronger binding; measurement: E-score
Target: Transcription factor Sp1 (SP1, Homo sapiens, UniProt P08047, residues 1-785, full length assumed)
Sequence of UniProt P08047 (whole entry, looked up): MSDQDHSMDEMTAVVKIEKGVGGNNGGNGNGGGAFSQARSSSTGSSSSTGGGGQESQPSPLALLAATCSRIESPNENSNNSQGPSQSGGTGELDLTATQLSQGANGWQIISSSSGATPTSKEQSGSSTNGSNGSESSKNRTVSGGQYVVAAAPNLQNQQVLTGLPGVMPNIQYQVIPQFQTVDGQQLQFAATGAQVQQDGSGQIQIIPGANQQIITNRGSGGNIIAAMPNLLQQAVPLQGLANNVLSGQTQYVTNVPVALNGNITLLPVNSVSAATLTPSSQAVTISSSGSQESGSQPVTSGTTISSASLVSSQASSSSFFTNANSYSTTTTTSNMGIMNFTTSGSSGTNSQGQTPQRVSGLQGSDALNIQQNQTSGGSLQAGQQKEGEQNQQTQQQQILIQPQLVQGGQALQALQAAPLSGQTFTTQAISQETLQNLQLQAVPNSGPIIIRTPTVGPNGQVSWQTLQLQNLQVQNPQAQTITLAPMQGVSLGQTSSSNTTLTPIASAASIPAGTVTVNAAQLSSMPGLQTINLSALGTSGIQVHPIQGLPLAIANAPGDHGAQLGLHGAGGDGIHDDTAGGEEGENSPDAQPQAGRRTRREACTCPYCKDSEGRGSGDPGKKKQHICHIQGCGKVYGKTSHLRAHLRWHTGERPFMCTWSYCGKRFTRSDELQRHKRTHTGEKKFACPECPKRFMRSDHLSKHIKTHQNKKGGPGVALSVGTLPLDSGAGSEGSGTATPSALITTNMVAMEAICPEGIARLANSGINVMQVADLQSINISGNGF
Notes: k-mer, scored over probes, only values ≥0.25
GAAGGGGC: 0.358
GAGGGGAC: 0.325
CATTGCAC: 0.258
CATCCCCA: 0.279
CCACCCCG: 0.345
AGACAGAT: 0.256
CCCTCCGC: 0.283
TCCCCTCA: 0.303

Further values, each from its own experiment
OGT: UDP-N-acetylglucosamine--peptide N-acetylglucosaminyltransferase 110 kDa subunit (OGT, Homo sapiens, UniProt O15294)
Sequence of UniProt O15294 (whole entry, looked up): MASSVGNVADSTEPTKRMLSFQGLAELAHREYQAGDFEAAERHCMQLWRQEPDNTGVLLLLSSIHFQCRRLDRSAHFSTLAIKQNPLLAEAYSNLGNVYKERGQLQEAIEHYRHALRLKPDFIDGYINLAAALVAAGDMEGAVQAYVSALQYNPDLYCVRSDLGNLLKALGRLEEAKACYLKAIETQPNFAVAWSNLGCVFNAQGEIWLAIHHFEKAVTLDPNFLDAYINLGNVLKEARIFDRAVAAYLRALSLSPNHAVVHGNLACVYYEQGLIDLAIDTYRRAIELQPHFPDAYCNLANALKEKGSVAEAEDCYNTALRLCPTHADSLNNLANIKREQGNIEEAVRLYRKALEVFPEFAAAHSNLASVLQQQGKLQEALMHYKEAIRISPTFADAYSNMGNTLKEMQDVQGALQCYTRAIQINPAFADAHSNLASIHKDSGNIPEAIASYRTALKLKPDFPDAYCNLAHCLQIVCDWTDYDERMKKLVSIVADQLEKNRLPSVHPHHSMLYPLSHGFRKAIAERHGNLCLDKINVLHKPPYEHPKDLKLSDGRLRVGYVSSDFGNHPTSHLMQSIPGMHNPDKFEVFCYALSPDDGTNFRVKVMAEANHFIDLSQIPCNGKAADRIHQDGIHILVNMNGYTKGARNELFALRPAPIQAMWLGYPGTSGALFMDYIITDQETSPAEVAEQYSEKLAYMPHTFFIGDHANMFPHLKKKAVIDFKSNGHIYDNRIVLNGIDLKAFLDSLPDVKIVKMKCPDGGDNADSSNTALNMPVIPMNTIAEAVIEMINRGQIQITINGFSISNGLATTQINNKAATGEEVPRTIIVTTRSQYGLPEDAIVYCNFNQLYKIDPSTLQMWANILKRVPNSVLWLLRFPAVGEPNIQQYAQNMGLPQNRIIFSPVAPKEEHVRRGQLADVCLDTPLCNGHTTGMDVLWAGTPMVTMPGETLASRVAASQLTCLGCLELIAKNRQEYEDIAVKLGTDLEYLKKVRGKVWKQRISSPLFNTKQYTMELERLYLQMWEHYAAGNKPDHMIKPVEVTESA
P1: viral docking peptide; TSVRRALFTGGSD; partner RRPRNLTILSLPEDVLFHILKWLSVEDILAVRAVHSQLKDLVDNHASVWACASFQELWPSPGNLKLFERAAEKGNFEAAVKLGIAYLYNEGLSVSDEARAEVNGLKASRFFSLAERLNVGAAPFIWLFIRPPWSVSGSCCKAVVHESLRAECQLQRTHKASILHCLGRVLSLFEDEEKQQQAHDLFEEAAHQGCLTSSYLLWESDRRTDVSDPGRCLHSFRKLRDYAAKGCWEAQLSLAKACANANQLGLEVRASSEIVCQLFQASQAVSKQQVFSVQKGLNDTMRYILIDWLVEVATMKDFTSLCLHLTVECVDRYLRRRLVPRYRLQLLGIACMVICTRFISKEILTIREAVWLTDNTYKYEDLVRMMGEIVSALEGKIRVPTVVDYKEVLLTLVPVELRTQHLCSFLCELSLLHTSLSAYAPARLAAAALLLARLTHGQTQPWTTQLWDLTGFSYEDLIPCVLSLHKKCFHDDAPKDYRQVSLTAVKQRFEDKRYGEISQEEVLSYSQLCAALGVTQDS
CYCS (Homo sapiens, UniProt P99999)
interaction screen (PHB2 (Homo sapiens, UniProt Q99623); cross-linking MS; hits only): cross-linked

DDTGPFQPMYQIQII
minimum log2 enrichment ratio (OGT; binding, phage display NGS; peptide; baseline: input library): 5.77

LMNA (Homo sapiens, UniProt P02545)
interaction screen (LMNB2 (Homo sapiens, UniProt Q03252); cross-linking MS; hits only): cross-linked

P1 L7Q
normalised enrichment score (CCNF, cyclin fold, Cln2 fusion (human); yeast growth competition, sequencing; yeast; strong parent motif; baseline: not given, higher = stronger binding): -0.0763

FARP2 (Homo sapiens, UniProt O94887)
cross-linked residues (PRPF19 (Homo sapiens, UniProt Q9UMS4); cross-linking MS; cell fractions; added: DMTMM): E547 to K64

HTYHWANVHDDPQAR
minimum log2 enrichment ratio (OGT; binding, phage display NGS; peptide; baseline: input library): 1.38

ATP5PF (Homo sapiens, UniProt P18859)
cross-linked residues (ATP5PB (Homo sapiens, UniProt P24539); cross-linking MS; cell fractions; added: DSSO): K41 to K233

Excerpt of the above (sample 2):
CATTGCAC: 0.258
CATCCCCA: 0.279
